Measurements collected from several papers.
Numbered parts are unrelated; each lists some results of a single study.

Sample 1
Target: Transcriptional repressor CTCF (CTCF, Homo sapiens, UniProt P49711, residues 1-727, full length assumed)
Technique: protein-binding microarray
Form: double-stranded DNA, one strand shown
Sample: in vitro
Concentration: not given
Notes: k-mer, scored over probes, only values ≥0.25
Direction: higher = stronger binding
Construct (chain): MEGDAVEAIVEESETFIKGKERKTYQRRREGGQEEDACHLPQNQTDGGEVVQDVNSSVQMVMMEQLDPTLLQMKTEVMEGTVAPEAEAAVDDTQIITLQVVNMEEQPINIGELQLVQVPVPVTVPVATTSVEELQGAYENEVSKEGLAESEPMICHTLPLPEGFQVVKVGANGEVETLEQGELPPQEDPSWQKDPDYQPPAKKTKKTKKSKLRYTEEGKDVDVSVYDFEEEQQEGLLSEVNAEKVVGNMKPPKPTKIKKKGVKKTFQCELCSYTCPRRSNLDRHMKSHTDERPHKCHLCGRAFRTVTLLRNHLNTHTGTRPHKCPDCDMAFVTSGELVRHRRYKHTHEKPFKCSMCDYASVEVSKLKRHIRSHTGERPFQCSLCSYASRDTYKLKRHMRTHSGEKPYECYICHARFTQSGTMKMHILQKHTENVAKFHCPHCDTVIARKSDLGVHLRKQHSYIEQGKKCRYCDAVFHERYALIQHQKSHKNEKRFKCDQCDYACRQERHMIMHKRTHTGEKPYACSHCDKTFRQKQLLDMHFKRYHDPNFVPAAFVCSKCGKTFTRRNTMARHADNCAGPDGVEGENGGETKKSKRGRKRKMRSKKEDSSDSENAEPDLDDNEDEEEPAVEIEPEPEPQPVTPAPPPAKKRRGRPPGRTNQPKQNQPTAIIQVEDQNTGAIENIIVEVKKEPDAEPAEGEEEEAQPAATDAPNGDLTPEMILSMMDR
Sequence | E-score
ATTACATA | 0.273
AATTTATA | 0.367
ACGTTTAA | 0.281
GGGTAACA | 0.252
AATACCAC | 0.264
ACATGAGA | 0.285
AGATAAAT | 0.294
AAGAAAAT | 0.279
CGCCCACA | 0.282
ATTGTTAC | 0.329
AACAAAAT | 0.314
GGCGCATA | 0.423
AAAATAAT | 0.288
ACCCGCGC | 0.32
AATATGGT | 0.252
GTCGCGAC | 0.265
GCGCATCA | 0.303
ATGCGTAA | 0.27
CATGCGCG | 0.259
AACGCAAC | 0.281
ACCGTAAA | 0.265
CAATATAA | 0.338
TAACGATA | 0.3
ATTTTTGC | 0.294
TATATGCA | 0.313

Sample 2
Target: Sal-like protein 4, full length isoform B (SALL4, Homo sapiens, UniProt Q9UJQ4-2, residues 1-616)
Technique: universal PBM
Form: double-stranded DNA, one strand shown
Sample: in vitro
Concentration: not given
Notes: 8-mer, flanks averaged, mean of replicates
Direction: higher = stronger binding
Sequence | E-score
ACTCGTCA | -0.0366
AATACAGA | 0.228
GCCCCTCC | -0.248
GGCTAACC | -0.162
GACGATAC | -0.0796
CGAGCAGA | -0.201
CTTCCATC | -0.0534
ACTCCAAC | -0.0838
ATAGTAGC | 0.105
ACGACGAA | -0.0566
GTCTTGCA | 0.104
CCTTTACC | -0.102
CAGTGTAG | 0.028
AACACAGA | 0.0588
GCCGGAGC | -0.235
GCTCTTGA | -0.104
ATCTTAAG | 0.0493
GCGCAGCA | -0.326
CACTGAAG | -0.0363
TCTAGCAA | 0.046
AAAAGTGA | 0.233
ACCGACCG | -0.263
CCCGTGCA | -0.273

Sample 3
Target: RNA binding protein fox-1 homolog 2, RRM domain, GST-SBP tag (RBFOX2, Homo sapiens, UniProt O43251-10, residues 100-194)
Technique: RNA Bind-n-Seq
Form: RNA
Sample: in vitro
Concentration: 365 nM
Notes: natural RNA segment, single round, ends assumed
Reference: no-protein control
Direction: higher = stronger binding
All sequences stand within: GGGAGUUCUACAGUCCGACGAUC … UGGAAUUCUCGGGUGCCAA
Construct (chain): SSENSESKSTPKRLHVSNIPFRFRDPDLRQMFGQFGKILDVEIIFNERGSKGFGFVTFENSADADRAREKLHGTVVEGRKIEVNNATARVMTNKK
Sequence | RBNS enrichment (R)
UCGAUUACUUGAGGUCAGGAGUUCACGACCAGCCUGGCCAACAUUGUGAAACCCCAUCUCUGCCAAAAAUACAAAAGUUAGCCGGGCGUAGUGGCACAUGCCUGUAAUCC | 0.596
CUCUUUUUCAGUUUUAUCUGUCAAUAGUAGCUACAUUUUUAAUGGGAGCACCUUUUAUCCCAAAGUGCUUUAUAAAUUGAGUGGACUGAUAUAUAUCACACCCAGGUAUC | 0.274
GGCUGAAGGUAUUAUGACUGUAAAGGUGUCUUCAGUUGUUUUUAGGGAGAACAGGUAGUAGAAAUUCAGGAUUACCAAGUGGCCACCAGUGCACACACUCCGCAGCUGUG | 1.2
GGUACUAGCUGAGGUUAUUUUAAAAGCAGCAGUGUGCCUACUUUUUGGAGUGUAACCGGGGAGGGAAAUUAUAGCAUGCUUGCAGACAGACCUGCUCUAGCGAGAGCUGA | 0.96
AGAGCCCCCAGGUGCUGUUUGCUCAGGAGGCUGCUGUGGGGGUGCCUUCCUCAGCCUCUGGCCCUCUUGGCUCAGAUUCAAUCAAAUGUUGCUUCCCUCUCCUGUCUUUC | 0.717
CGCACGGUCACAUGAUCACUUCACUUCUCGAUGGCUAUUGCAGACCAAGACUGCAGUCAAGAAGGGAGGGUGAGCCUCACGAUCUUGGGUCUCAGGGCCUGACAUAGGGG | 0.391
UUUGUGCAAACUCUGUAAAUAUGUGUUUAAACAAAUGUAAUAUUUUGUACAAGAUACACUGGAGAACAAAGGGAACUCAAGAUUCUUCCAGCCACAUGUCACCUGUAGGU | 0.279
CCCAUUAGUGGAGGAUAGUGCUUUUGAGCCAUCUAGGAAAGAUAUGGAUGAAGUUGAAGAGAAAUCUAAAGAUGUUAUAAACUUUACUGCCGAGAAACUUUCAGUAGAUG | 0.505
GCUUCGGCUGAUCCCAUAUUGGACCGGAUAGAGCUCAGCUCUUGCCUUUGUUGCUGCUAACACUGGAGGUGGGCGUUCCUAGCUGCAGUGUGCUGCUAUGCCUCUCUGCC | 0.31
UCCAAAAGGCUAGGCCAAUAAGAGGAGGCCAGGCUCUGUGGUCCCUUGGUGACAUCAUUCCAAACCUGGGGUAGCUGCCGCCCCCUGUGUCAGCCACAUACCCCCUCUCG | 0.147
AGGGUCAUUUGAAAGCUUCAGCCUCAGAAUGUGACCUUUAGUCAGGGCUGCAGAUAAAAAUAGGCAGGAAUCAAAUGACUAAGAAUGUAAUAGGGAAGAAGUGCCCUGCC | 3.67
GCUGAGAUGAUUGAACUGAAAGUUCCCAUAGCGUGGAUGAAACCGAGCAGCAGAGCAGCAGGACAUGGCCAACAAAGCGUGCUUUCUGAGGACGUGGAGAGUGGCAGUGA | 0.457

Sample 4
Target: Centromere-binding protein 1, full length, His-tagged (CBF1, Saccharomyces cerevisiae, UniProt P17106, residues 1-351)
Sequence of UniProt P17106 (whole entry, looked up): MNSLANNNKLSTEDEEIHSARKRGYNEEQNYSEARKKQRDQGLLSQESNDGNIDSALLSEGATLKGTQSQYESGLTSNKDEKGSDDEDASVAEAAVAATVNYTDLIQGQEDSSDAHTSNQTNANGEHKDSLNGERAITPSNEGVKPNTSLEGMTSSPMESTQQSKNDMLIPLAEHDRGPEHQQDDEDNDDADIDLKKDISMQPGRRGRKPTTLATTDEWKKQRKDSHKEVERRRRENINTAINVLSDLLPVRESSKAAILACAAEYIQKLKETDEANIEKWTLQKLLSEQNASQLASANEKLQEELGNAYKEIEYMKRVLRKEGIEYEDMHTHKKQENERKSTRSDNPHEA
Technique: competition protein-binding microarray
Form: double-stranded DNA, one strand shown
Sample: in vitro
Concentration: 2 µM
Notes: whole 60-bp probe, lowest competitor level
Together with: Pho4 competitor, 0.05 µM
Direction: higher = stronger binding
All sequences stand within: … GTCTTGATTCGCTTGACGCTGCTG
Sequence | fluorescence intensity [a.u.]
CATACCCAACCTTGTAGTGTGGGTGAAGATATTTGT | 73.3
CCACCGGGGGCAAGTCTCATGACAATTGGCGCAAAT | 101
CGGCCGCTGGCAGAGCACATGCGCCGTACGTCCATA | 80.9
CTTCTGTAAATTTTTCACGTGGAATGACGCGCCCCG | 429
AATGATCTTGTTTCTCATGTGGGTTCTGACTGGAGC | 79.9
AAAGCGGTAATTTGTGACGTGGGTGCAGATATCTAT | 82
CTTTCCCGATCTTGTCACATAACTTTAGCACATTTG | 76
CATACCCAACCTTGGTGAGTGGGTGAAGATATTTGT | 65.8
AAATTACTAAGTTGAAGGGTGGGTGACGCCGTATGA | 71.1
CGATTCACTGTCCATCACGGGTCCGCCTGGCACTGG | 128
GTCTTGTCTCATTGCATTGTGGGTGTCCCCACTTCA | 93.9
GCAGACTTGATCGTCTTCGTGATGGTAGCTTTCTGT | 67.6
CTCTGCTGGGGCCCTCACGTGGCCCTGGCATTTGGC | 821
CGCCGACTCTGCGCATTCGTGGCCGCTGCTCACTCC | 49.1
CGGGGTTAAGTTTGTCACAGTACTTGCTTGCAGCAG | 81.1
AAAAATATGCATTTTCTCATGACAAATTCATTCGGA | 103
CTTCTGTAAATTTGGATGGTGGGTGGACGCGCCCCG | 101
CGTCCTAGTGATTGTGCGGTGGGTGCCATGAGGAAG | 90.2

Sample 5
Target: Interferon regulatory factor 3, full length, phosphomimetic (IRF3, Homo sapiens, UniProt Q14653, residues 1-427, S386D/S396D/S398D/S402D/T404D/S405D)
Sequence of UniProt Q14653 (whole entry, unmodified, looked up): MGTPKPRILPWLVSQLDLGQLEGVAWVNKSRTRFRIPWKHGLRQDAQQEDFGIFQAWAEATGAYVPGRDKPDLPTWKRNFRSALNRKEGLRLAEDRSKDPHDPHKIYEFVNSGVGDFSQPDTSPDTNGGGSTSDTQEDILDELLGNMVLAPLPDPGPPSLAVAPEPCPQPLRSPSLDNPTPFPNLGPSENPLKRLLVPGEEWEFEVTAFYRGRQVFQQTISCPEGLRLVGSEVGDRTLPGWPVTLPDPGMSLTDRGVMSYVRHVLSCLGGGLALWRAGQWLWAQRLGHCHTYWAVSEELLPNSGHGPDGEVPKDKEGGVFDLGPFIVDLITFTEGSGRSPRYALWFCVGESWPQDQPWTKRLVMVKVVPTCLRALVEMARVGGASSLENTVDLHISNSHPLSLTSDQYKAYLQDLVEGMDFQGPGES
Technique: protein-binding microarray
Form: double-stranded DNA, one strand shown
Sample: in vitro
Concentration: 2540 nM top
Notes: 60-bp whole probe
Together with: salmon DNA 0.4 mg/ml
Reference: random background probes
Direction: higher = stronger binding
All sequences stand within: GCCTAGCAC … GTCTTGATTCGCTTGACGCTGCTG
Sequence | fitted relative affinity [z-score]
GACCGTATCGGTATCGGGACGTGCTAG | 4.86
GACGGACTGGGTTTCGTGACGTGCTAG | 0.182
TTAGAACTGAGACTGTATTAGTGCTAG | -0.41
GACGGCATCGACTATCGGGACGTGCTA | -0.825
TTAGATTCCAGTTTCGATTAGTGCTAG | 4.95
ATATATTTATGTATACACACGTGCTAG | 0.734
TCAGGACTGGACACTGGGTTAGTGCTA | -0.703
GACGATATCAGTCTCGAGTCGTGCTAG | 1.56
CACTCTGTCCCTCTGTGACAGTGCTAG | 1.31
CACTCTTTCCTCACCATACTGTGCTAG | 2.27
ATAGGACTGGGGACTGGGTTAGTGCTA | -1.05
TTAGTTTTCGACTTTCGGTTAGTGCTA | 4.12
TTAGAATTGGGGTATCGATTAGTGCTA | -0.21
TTAGAACTGAGGACTGGATTAGTGCTA | -0.618
GTCGGTTTCCTTATCCTGACGTGCTAG | 9.24
CCTTCCATCACTTTCCACTTGTGCTAG | 2.65
TTAGGTTTCGTTCTCGGTTAGTGCTAG | 8.25
TCACATGTTGCTCTCCGACTGTGCTAG | 0.13
TCACCTTGGAAGTATGACACTGTGCTA | -0.0939
GTGGGGGGTGTGAGTGGGTGGTGCTAG | 0.148
GAGATGATCCAGTTTTACCTGGTGCTA | 0.282
TTAGGACTGGGGTATGGGTTAGTGCTA | -1.08
AACCATTTTGGTTTTCCTTAGTGCTAG | 2.7
GACGATTTCAGTTTCGAGAGGTGCTAG | 3.96
TTCTTTTTTTTCTTTAAAAGGTGCTAG | 2.7

A few entries again (sample 5):
Sequence | fitted relative affinity [z-score]
TTAGTTTTCGACTTTCGGTTAGTGCTA | 4.12
TTAGAATTGGGGTATCGATTAGTGCTA | -0.21
TTAGAACTGAGGACTGGATTAGTGCTA | -0.618
GTCGGTTTCCTTATCCTGACGTGCTAG | 9.24
CCTTCCATCACTTTCCACTTGTGCTAG | 2.65
TTAGGTTTCGTTCTCGGTTAGTGCTAG | 8.25
TCACATGTTGCTCTCCGACTGTGCTAG | 0.13
